Measured values from different studies.
A part holds a random share of what one study measured.

Set 1
Target: RING finger protein unkempt homolog, zinc fingers 1-6, GST-SBP tag (UNK, Homo sapiens, UniProt Q9C0B0, residues 30-357)
Method: RNA Bind-n-Seq
Molecule type: RNA
Matrix: in vitro
Concentration: not given
Notes: RNA with constant flanks, human and mouse sites, ends assumed
Reference: input RNA pool
Direction: higher = stronger binding
Target sequence (chain): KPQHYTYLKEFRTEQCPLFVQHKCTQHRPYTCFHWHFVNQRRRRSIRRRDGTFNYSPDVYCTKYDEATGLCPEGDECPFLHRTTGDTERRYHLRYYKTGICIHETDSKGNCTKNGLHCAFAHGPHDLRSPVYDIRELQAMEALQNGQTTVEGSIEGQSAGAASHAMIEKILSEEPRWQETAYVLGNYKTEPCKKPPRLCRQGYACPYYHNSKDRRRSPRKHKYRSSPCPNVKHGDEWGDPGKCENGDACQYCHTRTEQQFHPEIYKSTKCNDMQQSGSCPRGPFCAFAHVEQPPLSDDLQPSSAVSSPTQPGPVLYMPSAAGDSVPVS
Sequence	bound/input enrichment [ratio]
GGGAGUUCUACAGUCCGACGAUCGAUCAUAAGAAAGAGCUGAGAAAACUCAAUAUGUCUAUACUGAUUAAUUUCUUAGACCUUUUAGACAUCUUAAUAAGAAGUCCUGGGAGUAUAAAACGAGAAGAAAAGCUAGAAGAUCUUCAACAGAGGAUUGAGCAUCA	0.28
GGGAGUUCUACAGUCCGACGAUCGGACUUGUGCUCUCUGGAACCACAUUUUCAGACUGUCUCAUGGUGGUGCAGUUCUUACGAAACUUUGGUAAAGUUUUGGGCUUUGAUGUGAAUAUUGAUGUUCCAAACCUCAGUGUUCUUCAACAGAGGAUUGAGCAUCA	0.209
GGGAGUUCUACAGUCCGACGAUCGUACUUGCUGUAGGAUACAAGCUGUCUUUGCACUAGCUCUAAAGAAGAAUUUCUUCUGGUUUUAGAGAACUGAUUUUGUUUUAGCAUUAAACUGUUCAAGUUUUUGUACGUAGAUAUCUACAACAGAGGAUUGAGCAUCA	5.64
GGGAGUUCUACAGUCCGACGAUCGUGGUUUGUCUUAUCUCCUGCCUUGAUCUUCCAUGUCAUUUCCCAGUGGGCAACUAUCAUUAGUUUAUACCUCGAUUUUAUUUGCCCUGUGUAAUUUUUAACUAAAAAUGUUACAUAACCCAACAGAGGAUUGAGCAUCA	0.548
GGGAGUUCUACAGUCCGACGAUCAAUUUUAACCAAGAAUCAGAAGGUAGAAAUUCAGGACCAUGGUUGUCUUCUUCACUUAGAAAUAGAUGCACACCUUUGUUCUCGAGAAGGAGGCGAGAGGGAAGGGAUGAGUCUUCAAGACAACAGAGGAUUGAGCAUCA	3.18
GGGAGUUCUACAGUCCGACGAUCAGUGAGAACACCCUGCAGUUCUACAAUGAGAGGGUGGUGAUCAUGAACUCGAUCCUGGAGCGCAUGUGUGCCGACGUGCUGCAGCAGACAGCCACGCAGAUCAAGUUUCCCUCCACCGGGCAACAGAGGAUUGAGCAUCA	0.0901
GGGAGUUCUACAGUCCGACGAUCGCAACGGAGAUAAAUUCCCGGAACCGCGAUUCGGCGUGUCAGGAAUUCGAAUUUAGAGUUUAAUUUCUCAGAGCAUUCUCUCCAGGAAGAAUUUUUACAGUAUCUCAAAGACUUCACUUGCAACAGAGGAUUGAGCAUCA	0.824
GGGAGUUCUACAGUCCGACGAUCGUGGUCCACGACUGUCCCGUCUGGGACAUAUUUGACAGUGAUUGGUACACUUCUCGAAAUCUAAUUGGGGGCGCUGACAUCAUUGUGAUCAAAUACAACGUUAAUGACAAGUUUUCAUUCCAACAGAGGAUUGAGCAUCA	0.124
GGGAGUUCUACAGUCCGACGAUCAUGAUAAUUGUUGGAGUCAGCAUUUUAUGUAUUCCAUUUGCAAAAAACAUUUAUGGACUCAUAGCUCCGAACUUUGGAGUUGGUUUUGCAAUUGGAAUGGUGGAUUCGUCAAUGAUGCCUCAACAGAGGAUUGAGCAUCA	0.102
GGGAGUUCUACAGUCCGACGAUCGACUACUUCACUUGCAUAACUAAAGCUUAUGAAAUGUUAUCUGAUCCAGUGAAAAGACGAGCAUUUAACAGUGUAGAUCCUACUUUUGAUAACUCAGUUCCUUCUAAAAGUGAAGCAAAGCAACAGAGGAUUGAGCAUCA	0.0747
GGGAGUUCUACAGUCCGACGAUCUAAGAAAAUAUAGUUGUGAUCUGUGUUACACACCAAUGAUUGUUGCCGCUGAUUUUGUCAAAUCUAUAAAAGCCAGAGACAGCGAAUUUACCACAAAUCAAGGUGAUUGCCCAUUGAUUGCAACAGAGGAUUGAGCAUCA	0.172

Set 2
Target: RNA binding protein fox-1 homolog 2, RRM domain, GST-SBP tag (RBFOX2, Homo sapiens, UniProt O43251-10, residues 100-194)
Method: RNA Bind-n-Seq
Molecule type: RNA
Matrix: in vitro
Concentration: 365 nM
Notes: natural RNA segment, single round, ends assumed
Reference: no-protein control
Direction: higher = stronger binding
Residues (chain): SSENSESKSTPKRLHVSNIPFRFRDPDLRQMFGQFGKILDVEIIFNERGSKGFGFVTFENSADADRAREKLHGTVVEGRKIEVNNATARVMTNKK
Sequence	RBNS enrichment (R)
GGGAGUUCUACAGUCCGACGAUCUUUAGUUCAUGAUGGCAGCUCUCUGCCUCUUCAGAAAGUAUAUAUCAUAGUGGUAAAUAAUGUAGAUUAUAUAUAUACAUAUAUAUAUAUAUAUAUGCUAUAUAUGGACAUGGAAUUCUCGGGUGCCAA	1.54
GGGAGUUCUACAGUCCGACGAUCUAUAUGUGUAAGUAAAGCCUGAAGUGUAGGGGGCCUUUGUUCUUGAAGCAGCCAGGGUCUCCUUGCCCUGGCCUUGGCCUUCCCUAGACUGUGUGGGGCUCAGCAUUGGGUGGAAUUCUCGGGUGCCAA	1.3
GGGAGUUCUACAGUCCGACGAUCUGAAGGCAAAUAUAAGCUGGGAAAAAAGUUUUGAUGAAAUUCUUGAAGUUCAUGGUGAUCAGUGCAAUUGACCUUCUCCCUCACUCCUGCCAGUUGAAAAUGGAUUUUUAUGGAAUUCUCGGGUGCCAA	0.374
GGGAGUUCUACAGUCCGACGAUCUUGUAUAUAGCCCAAUGCAUCUCUGGAACUCUGUCUAAACACCAGCCAUCUACUUGGAAUGGGCCCCAGGACUGUGGUAUUUGCCUGGGCCAGGAAAGGAUAAGAAAUCCUGGAAUUCUCGGGUGCCAA	0.968
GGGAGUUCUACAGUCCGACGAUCUUUAAACCGGCCCCACAUGAAGAGAACAUCCCUUGAGACGAAUUUGGAGACUGGGAUUAGAGCCUUUGGAGGUCAAAGCAAAUUAAGAUUUUUAUUUAAGAAUAAAAGAGUGGAAUUCUCGGGUGCCAA	0.59
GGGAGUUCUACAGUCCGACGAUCGAAACAAGGAGUUGGCAUCUUGGAUCUCAGAAUGGCCUGGAAACGGAUGGCCUCUACGCUGUUCCAUCACAGUCUCCAACUAAGGCUUAUGGUAUUUCAUUAAACUGUUGUGGAAUUCUCGGGUGCCAA	0.345
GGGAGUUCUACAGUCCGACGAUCAAAGCCUGUGAUGGAGGAGCACAAGACCCUGUCUGCUGAGGGCCCAUGCUCCUCUCAUGGGUUUCUUCCCACCUAGCCAGUGCCUUCAUUUGCUUGUUGUACAGUUUCUUUGGAAUUCUCGGGUGCCAA	1.99
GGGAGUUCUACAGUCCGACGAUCCCGGCCUGGGCCCCCAGGAUUCUAGGACCCCCAGGCAGCCCCUUGGACUGGUCCCGGGUGCCUUCCAAGCACAGUCUCCAUGCUCCCAGAUUCUCGACCUUCCCCCGGCCUGGAAUUCUCGGGUGCCAA	0.178
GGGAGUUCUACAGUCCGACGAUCCUCUUCUGCCAUGUAACUGGAGGAUGUGCUAUGAGUUUGCAAACAGCUGGACUGUCAGGCUGCUUUUUUUCCAGAUGUUCCUCCUCUGCCUCCCCUUCCCCUCCUCUCCCUGGAAUUCUCGGGUGCCAA	2.33

Set 3
Target: Fragile X messenger ribonucleoprotein 1, C-terminal low-complexity region (Fmr1, Mus musculus, UniProt P35922)
Method: RNA Bind-n-Seq
Molecule type: RNA
Matrix: in vitro
Concentration: 200 nM
Notes: whole 134-nt RNA, ends assumed
Added: 150 mM LiCl
Reference: input library
Direction: higher = stronger binding
Each molecule: 7-deaza-guanosine replaces G
Sequence	log2 enrichment
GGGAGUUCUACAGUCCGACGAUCUAGGUAAGAAAGUACUCAUUGUCUAUGCACACCAGGAACCCAAGUCUUUCAACGGAUCCUUGAAGAAUGUGGCUGUAGAUGAACUGAGCAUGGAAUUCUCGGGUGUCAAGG	-0.949
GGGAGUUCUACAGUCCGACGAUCUCCUCAAGUCCUGUGCUACACAUCGUAUGUACCGAAUCGGGAGGGAGGAGGGAAAGUAUUAUGUUACGCCGUUCGGAUCUGCACUUCCAGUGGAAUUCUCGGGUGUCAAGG	-0.896
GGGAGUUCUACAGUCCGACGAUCUCCUGUGCUACACAUCGUAUGUACCGAAUCGGGGUGGGGAAAAAGGGGAAAAAAAGGGGAAAGUAUUAUGUUACGCCGUUCGGAUCUGCAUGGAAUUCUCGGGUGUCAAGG	-1.44
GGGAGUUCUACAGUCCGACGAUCCCUGUGCUACACAUCGUAUGUACCGAAUCGGGGUUUGGGGUUUUUUUGGGGUUUUUGGGGAAAGUAUUAUGUUACGCCGUUCGGAUCUGCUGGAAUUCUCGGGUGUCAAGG	-0.348
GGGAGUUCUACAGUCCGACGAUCAAGUCCUGUGCUACACAUCGUAUGUACCGAAUCGGGGUUUUGGUUUUGGGUUUUGGGAAAGUAUUAUGUUACGCCGUUCGGAUCUGCACUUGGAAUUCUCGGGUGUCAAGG	-1.4
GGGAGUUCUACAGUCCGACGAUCAGUCCUGUGCUACACAUCGUAUGUACCGAAUCGGGAAAAAGGGUGGGAAAAAAAGGGAAAGUAUUAUGUUACGCCGUUCGGAUCUGCACUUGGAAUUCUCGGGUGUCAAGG	-1.36
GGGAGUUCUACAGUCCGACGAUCGUCCUGUGCUACACAUCGUAUGUACCGAAUCGGGGUUUGGGGAAAGGGGUUUUUGGGGAAAGUAUUAUGUUACGCCGUUCGGAUCUGCACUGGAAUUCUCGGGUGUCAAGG	-0.122
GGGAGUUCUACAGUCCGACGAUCUCAAGUCCUGUGCUACACAUCGUAUGUACCGAAUCGGGGAAGGAAGGGAAGGGGAAAGUAUUAUGUUACGCCGUUCGGAUCUGCACUUCCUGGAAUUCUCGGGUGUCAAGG	-0.591
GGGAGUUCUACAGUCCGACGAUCUUAAUGAUAUAAGUAGAGAGUAGUAUCCUGGUGGAGUUGUAACCACUAUUUUUGUUUUCUAGAUCCCUAUGGUUCAGGAGGCCAGAAAUUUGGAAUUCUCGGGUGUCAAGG	-1.81
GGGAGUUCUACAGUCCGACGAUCCACAGACAACACGCACCCACACAGACACAGAGGGAAGGGGUUGGGAUGGGGACAGGGUGCCCAGCAGGGCGGGGUAGGACCCCAGCCCCUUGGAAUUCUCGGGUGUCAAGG	-0.206
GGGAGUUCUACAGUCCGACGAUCCAAGUCCUGUGCUACACAUCGUAUGUACCGAAUCGGGAAAGGGUGGGAAAAAGGGAAAGUAUUAUGUUACGCCGUUCGGAUCUGCACUUCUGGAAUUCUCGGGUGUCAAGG	-0.911

Set 4
Target: Histone acetyltransferase KAT6A, winged helix 1, GST fusion (KAT6A, Homo sapiens, UniProt Q92794, residues 1-85)
Method: protein binding microarray
Molecule type: double-stranded DNA, one strand shown
Matrix: in vitro
Concentration: not given
Notes: 8-mer, flanks averaged, mean of 2 arrays, mostly near background
Reference: not given
Direction: higher = stronger binding
Residues (chain): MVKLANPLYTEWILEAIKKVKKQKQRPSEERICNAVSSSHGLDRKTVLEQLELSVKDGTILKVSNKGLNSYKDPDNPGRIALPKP
Sequence	E-score
CATTGTCA	-0.165
GTTGCAGA	-0.0956
CTATAAAG	-0.0766
ACTACGGG	0.307
CCCATGTC	-0.221
ATTAAGAG	-0.0814
GGTTCTTA	-0.0753
GTCGATAA	0.0316
CCTAGGAC	-0.314
CGGCTATA	0.287
AGCCGGGG	0.173
CACTAAGA	-0.185
AACGAGCT	-0.23
ATTAACGA	-0.0601
GCCGCAAC	0.329
CAACCGTA	0.0238

Excerpt of the above (set 4):
Sequence	E-score
GTTGCAGA	-0.0956
CTATAAAG	-0.0766
ACTACGGG	0.307
CCCATGTC	-0.221
ATTAAGAG	-0.0814
